Measured values from different studies.
Protocols differ between the studies behind these lines. ± marks the error that the study gave.
PNLIP: Pancreatic triacylglycerol lipase (PNLIP, Homo sapiens, UniProt P16233)
UniProt P16233, sequence (whole entry, looked up): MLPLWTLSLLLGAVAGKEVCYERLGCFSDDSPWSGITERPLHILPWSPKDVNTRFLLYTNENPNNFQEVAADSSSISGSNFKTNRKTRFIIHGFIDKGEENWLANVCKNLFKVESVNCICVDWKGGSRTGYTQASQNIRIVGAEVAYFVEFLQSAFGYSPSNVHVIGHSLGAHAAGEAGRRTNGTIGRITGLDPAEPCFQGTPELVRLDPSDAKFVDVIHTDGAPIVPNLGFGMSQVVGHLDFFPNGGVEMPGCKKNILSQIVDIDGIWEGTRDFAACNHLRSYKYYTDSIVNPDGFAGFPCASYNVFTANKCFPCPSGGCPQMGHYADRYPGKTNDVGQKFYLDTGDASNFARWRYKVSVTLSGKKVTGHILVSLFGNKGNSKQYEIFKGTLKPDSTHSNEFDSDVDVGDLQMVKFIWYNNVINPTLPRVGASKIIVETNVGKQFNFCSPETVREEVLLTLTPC
MAPK9: Mitogen-activated protein kinase 9 (MAPK9, Homo sapiens, UniProt P45984)
CRBN/Zinc finger protein Aiolos: CRBN/Zinc finger protein Aiolos (Homo sapiens, UniProt Q96SW2+Q9UKT9)
CTSS: Cathepsin S (CTSS, Homo sapiens, UniProt P25774)
UniProt P25774, sequence (whole entry, looked up): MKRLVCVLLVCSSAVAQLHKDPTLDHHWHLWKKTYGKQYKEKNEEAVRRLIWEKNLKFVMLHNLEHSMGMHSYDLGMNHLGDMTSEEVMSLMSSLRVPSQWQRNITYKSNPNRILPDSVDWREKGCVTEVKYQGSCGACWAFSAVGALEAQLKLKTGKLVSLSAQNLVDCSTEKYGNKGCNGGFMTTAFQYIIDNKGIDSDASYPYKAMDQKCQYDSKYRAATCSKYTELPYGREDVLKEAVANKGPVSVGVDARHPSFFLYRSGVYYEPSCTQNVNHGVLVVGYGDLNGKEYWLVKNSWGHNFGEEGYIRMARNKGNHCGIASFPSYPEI
UniProt P08246, sequence (whole entry, looked up): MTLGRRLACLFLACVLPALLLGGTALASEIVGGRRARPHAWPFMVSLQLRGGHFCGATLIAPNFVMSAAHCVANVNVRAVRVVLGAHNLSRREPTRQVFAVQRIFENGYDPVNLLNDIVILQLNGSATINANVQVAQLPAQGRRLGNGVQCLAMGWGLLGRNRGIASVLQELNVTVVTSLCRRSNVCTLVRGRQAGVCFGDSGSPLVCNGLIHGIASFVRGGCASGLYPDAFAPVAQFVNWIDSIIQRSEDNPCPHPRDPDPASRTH
UniProt P14778, sequence (whole entry, looked up): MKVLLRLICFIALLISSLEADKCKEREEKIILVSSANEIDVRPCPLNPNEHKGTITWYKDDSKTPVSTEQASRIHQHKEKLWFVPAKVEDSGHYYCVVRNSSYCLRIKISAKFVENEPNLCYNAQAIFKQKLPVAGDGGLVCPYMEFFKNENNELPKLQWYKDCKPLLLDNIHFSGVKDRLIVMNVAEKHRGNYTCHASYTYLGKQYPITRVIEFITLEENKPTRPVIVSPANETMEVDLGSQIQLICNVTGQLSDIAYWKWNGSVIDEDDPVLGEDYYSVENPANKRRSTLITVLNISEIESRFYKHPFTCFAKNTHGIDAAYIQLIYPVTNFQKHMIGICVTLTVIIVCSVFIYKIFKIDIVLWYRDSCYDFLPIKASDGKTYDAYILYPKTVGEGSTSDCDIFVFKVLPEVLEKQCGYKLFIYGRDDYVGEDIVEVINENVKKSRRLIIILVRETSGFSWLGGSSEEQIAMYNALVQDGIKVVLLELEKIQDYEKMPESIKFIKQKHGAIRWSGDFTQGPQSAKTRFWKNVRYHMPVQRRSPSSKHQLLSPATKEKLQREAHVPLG
UniProt Q4JIM5, sequence (whole entry, looked up): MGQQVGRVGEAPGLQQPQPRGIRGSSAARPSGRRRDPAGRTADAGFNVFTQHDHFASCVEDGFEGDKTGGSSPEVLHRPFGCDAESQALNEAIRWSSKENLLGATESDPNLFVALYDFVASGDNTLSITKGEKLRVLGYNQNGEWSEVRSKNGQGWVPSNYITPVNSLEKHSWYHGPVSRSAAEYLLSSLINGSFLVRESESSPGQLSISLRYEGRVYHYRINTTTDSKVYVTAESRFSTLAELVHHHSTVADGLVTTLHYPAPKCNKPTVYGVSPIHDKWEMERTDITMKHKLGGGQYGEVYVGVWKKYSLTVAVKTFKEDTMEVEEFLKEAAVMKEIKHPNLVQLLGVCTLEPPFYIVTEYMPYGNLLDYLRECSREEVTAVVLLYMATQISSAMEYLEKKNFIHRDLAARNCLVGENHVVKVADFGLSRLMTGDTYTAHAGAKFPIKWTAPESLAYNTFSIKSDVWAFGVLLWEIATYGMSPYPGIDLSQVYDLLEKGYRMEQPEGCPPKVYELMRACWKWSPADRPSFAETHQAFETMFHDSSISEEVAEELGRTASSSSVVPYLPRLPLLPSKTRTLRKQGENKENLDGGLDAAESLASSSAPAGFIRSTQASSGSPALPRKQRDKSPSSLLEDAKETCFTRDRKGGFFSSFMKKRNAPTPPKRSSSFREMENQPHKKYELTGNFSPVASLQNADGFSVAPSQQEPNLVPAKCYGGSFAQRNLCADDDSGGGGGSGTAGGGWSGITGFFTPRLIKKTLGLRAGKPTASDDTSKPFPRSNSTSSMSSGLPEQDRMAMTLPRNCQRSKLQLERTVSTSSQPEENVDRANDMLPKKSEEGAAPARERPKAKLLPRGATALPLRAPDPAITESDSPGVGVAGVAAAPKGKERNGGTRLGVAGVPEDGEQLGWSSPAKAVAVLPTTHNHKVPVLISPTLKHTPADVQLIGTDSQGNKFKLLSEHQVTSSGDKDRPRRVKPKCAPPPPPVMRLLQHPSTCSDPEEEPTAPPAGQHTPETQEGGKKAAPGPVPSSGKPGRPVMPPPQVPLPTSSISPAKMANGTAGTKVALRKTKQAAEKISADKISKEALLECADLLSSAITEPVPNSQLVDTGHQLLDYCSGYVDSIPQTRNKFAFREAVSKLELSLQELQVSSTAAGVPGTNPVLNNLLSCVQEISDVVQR
UniProt P16234, sequence (whole entry, unmodified, looked up): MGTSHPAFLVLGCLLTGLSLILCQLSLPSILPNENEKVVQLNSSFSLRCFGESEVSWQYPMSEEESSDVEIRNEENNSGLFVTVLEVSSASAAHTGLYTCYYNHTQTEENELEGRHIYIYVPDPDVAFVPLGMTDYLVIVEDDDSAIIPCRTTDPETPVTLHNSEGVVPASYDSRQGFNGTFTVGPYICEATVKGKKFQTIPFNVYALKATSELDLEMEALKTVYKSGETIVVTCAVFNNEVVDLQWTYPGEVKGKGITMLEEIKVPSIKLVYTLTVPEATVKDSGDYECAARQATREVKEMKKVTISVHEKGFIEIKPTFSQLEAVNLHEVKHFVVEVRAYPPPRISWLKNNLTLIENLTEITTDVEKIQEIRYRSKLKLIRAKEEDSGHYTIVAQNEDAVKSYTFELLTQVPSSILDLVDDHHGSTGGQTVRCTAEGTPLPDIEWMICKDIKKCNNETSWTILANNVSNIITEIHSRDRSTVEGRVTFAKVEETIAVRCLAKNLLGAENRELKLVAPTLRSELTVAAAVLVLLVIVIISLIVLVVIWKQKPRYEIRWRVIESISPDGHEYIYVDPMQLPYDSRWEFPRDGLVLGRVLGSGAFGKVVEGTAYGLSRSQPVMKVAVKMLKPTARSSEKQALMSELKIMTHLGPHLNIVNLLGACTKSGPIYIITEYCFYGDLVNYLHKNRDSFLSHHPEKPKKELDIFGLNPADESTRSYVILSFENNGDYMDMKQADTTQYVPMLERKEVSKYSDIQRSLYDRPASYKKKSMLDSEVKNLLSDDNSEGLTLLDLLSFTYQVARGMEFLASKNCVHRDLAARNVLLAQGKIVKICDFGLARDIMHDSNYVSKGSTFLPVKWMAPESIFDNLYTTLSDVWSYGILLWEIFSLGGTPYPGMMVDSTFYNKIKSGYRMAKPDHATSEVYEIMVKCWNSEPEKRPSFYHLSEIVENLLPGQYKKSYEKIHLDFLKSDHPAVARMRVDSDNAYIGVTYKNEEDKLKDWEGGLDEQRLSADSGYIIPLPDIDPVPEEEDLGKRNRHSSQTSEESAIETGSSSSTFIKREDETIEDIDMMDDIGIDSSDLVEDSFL
UniProt P03070, sequence (whole entry, looked up): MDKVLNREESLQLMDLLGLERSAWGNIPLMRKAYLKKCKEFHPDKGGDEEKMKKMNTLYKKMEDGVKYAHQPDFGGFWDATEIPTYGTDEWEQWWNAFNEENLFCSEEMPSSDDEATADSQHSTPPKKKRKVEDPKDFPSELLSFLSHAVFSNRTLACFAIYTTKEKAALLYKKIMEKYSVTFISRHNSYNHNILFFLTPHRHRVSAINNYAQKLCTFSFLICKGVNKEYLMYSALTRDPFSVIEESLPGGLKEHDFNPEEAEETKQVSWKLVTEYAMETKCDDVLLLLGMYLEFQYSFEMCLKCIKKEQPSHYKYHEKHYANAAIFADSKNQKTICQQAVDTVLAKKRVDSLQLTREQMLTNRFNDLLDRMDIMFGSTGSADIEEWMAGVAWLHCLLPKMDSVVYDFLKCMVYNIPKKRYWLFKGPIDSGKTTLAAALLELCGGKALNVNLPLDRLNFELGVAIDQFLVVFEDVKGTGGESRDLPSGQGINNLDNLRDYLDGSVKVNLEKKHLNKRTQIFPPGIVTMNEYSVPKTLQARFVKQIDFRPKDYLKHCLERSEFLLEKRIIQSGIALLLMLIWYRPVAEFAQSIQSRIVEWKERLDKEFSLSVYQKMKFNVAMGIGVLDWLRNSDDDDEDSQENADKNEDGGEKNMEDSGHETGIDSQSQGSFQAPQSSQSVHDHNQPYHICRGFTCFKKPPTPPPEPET
UniProt P45983, sequence (whole entry, looked up): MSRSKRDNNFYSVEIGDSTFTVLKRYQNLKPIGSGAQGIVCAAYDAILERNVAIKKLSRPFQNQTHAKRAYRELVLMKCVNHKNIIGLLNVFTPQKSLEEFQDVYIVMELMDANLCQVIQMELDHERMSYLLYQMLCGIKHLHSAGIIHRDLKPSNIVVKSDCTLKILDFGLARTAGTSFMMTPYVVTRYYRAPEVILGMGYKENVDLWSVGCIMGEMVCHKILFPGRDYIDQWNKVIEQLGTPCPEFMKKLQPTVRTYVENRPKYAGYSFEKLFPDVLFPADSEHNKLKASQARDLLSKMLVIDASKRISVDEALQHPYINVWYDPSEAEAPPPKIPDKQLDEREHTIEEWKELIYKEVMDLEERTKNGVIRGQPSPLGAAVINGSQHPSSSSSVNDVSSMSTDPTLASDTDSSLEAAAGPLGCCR

Structure (SMILES) | target or system | test | system | setting | scale | endpoint | result
O=C1c2ccccc2C(=O)c2c(O)ccc(O)c21 | PNLIP | enzyme activity, inhibitor, fluorescence | – | 50 µM | – | remaining activity | 6.24%
Cc1cc(NC(=O)c2cccc(N)c2)ccc1Nc1nccc(-c2cccnc2)n1 | MAPK9 | enzyme activity, inhibitor | – | 44.44 µM, unit not given | baseline: vehicle | remaining activity | 0.0616
CC(C)(O)C(=O)N1CCC(n2cc(Cc3ccc4c5c(cccc35)C(=O)N4C3CCC(=O)NC3=O)cn2)CC1 (centres unmarked) | CRBN/Zinc finger protein Aiolos | protein level, degrader, western blot | NCI-H929 | 10 nM, 4 h | – | remaining activity | 6.33%
COc1cc(Nc2nc(C)cc(-c3cnn4nc(OC)ccc34)n2)cc(C(F)(F)F)c1 | PIK3CA (Homo sapiens, UniProt P42336) | inhibitor | – | 1 µM | baseline: control | remaining activity | 100%
O=C1CCC(N2C(=O)c3cccc4c(Cc5cnn(C6CCN(C(=O)C7(O)CCC7)CC6)c5)ccc2c34)C(=O)N1 (centres unmarked) | CRBN/Zinc finger protein Aiolos | protein level, degrader, western blot | NCI-H929 | 100 pM, 4 h | – | remaining activity | 71.8%
C=C1CC[C@H](OCCCNC(=O)CCOCCOCCOCCOCCOCCOCCOCCOCCOCCOCCOCCOCCOCCOCCOCCOCCOCCOCCOCCOCCOCCOCCOCCOCCOCCOCCOCCOCCOCCOCCOCCOCCOCCOCCOCCOCCNC(=O)CCN2C(=O)CC(SC[C@H](NC(=O)[C@H](Cc3ccccc3)NC(=O)[C@H](CC(N)=O)NC(=O)[C@H](Cc3c[nH]cn3)NC(=O)[C@@H](NC(=O)[C@H](CC(=O)O)NC(=O)[C@H](CCC(N)=O)NC(=O)[C@H](CC(C)C)NC(=O)[C@H](CCCCN)NC(=O)[C@H](CCCCN)NC(=O)[C@H](CCCNC(=N)N)NC(=O)[C@H](CC(C)C)NC(=O)[C@H](Cc3c[nH]c4ccccc34)NC(=O)[C@H](CCC(=O)O)NC(=O)[C@@H](NC(=O)[C@H](CCCNC(=N)N)NC(=O)[C@H](CCC(=O)O)NC(=O)[C@H](CCSC)NC(=O)[C@H](CO)NC(=O)[C@H](CC(N)=O)NC(=O)[C@H](CC(C)C)NC(=O)[C@H](Cc3c[nH]cn3)NC(=O)[C@H](CCCCN)NC(=O)CNC(=O)[C@H](CC(C)C)NC(=O)[C@H](CC(N)=O)NC(=O)[C@H](Cc3c[nH]cn3)NC(=O)[C@H](CCSC)NC(=O)[C@H](CC(C)C)NC(=O)[C@H](CCC(N)=O)NC(=O)[C@@H](NC(=O)[C@H](CCC(=O)O)NC(=O)[C@H](CO)NC(=O)[C@@H](NC(=O)[C@@H](N)CO)C(C)C)[C@@H](C)CC)C(C)C)C(C)C)C(=O)O)C2=O)C/C1=C/C=C1\CCC[C@]2(C)[C@@H]([C@H](C)CCCC(C)(C)O)CC[C@@H]12 (some centres unmarked) | – | – | male cynomolgus monkey, plasma | intravenous, 0.02 mg/kg, single dose | – | Tmax | 11.4 min
CO[C@@H]1[C@@H](OC(=O)c2ccc(C)[nH]2)[C@@H](O)[C@H](Oc2ccc3c(O)c(NC(=O)c4c[nH]c(C(=O)Nc5c(O)c6ccc(O[C@@H]7OC(C)(C)[C@H](OC)[C@@H](OC(=O)c8ccc(C)[nH]8)[C@H]7O)c(C)c6oc5=O)c4C)c(=O)oc3c2C)OC1(C)C | Large T antigen (Simian virus 40, UniProt P03070) | fork unwinding | – | 125 µM | – | remaining activity | 7%
CC(C)(C)OC(=O)NC(Cc1cccc(Cl)c1)C(=O)NCC=CS(=O)(=O)c1ccccc1 (centres unmarked) | CTSS | inhibitor | – | 5 µM, 60 min, together with: Z-Phe-Arg-AMC | baseline: uninhibited control | remaining activity | < 1%
O=C1CCC(N2Cc3c(OCc4cn(C5CCNCC5)nn4)cccc3C2=O)C(=O)N1 (centres unmarked) | CRBN/Zinc finger protein Aiolos | protein level, degrader, western blot | NCI-H929 | 1 nM, 4 h | – | remaining activity | 95.6%
C#CCOC(=O)[C@@]1(C)C=C(C(=O)Nc2cccc(C(=O)Nc3ccc(C)c(Nc4nccc(-c5cccnc5)n4)c3)c2)C(=O)CC1 | MAPK9 | enzyme activity, inhibitor | – | 0.06097 µM, unit not given | baseline: vehicle | remaining activity | 0.761
COc1ccccc1-c1ccncc1C(=O)Nc1nnc(OCc2ccc(Cl)cc2)s1 | DNA polymerase theta, helicase domain (POLQ, Homo sapiens, UniProt O75417) | ATPase activity, ADP-Glo | – | 0.008 µM, together with: ATP 400 µM | – | remaining activity | 81%
COC(=O)c1cc2cc3c(cc2oc1=O)N(CC(=O)NC(Cc1ccc(C)cc1)C(=O)NCC=CS(=O)(=O)c1ccccc1)CCC3 (centres unmarked) | CTSS | inhibitor | – | 5 µM, 60 min, together with: Z-Phe-Arg-AMC | baseline: uninhibited control | remaining activity | 8%
O=S(=O)(c1ccc(-c2ccc3ncnc(Nc4ccc(OCc5ccccc5F)c(Cl)c4)c3c2)cc1)N1CCOCC1 | Leishmania major | intracellular amastigote growth, luciferase | RAW264.7 macrophages | – | – | EC50 | > 15 µM
COC(=O)[C@@]1(C)C=C(C(=O)Nc2cccc(C(=O)Nc3ccc(Nc4nccc(-c5cccnc5)n4)c(C)c3)c2)C(=O)CC1 | MAPK9 | enzyme activity, inhibitor | – | 2.788e-05 µM, unit not given | baseline: vehicle | remaining activity | 0.994
O=C1CCC(N2C(=O)c3cccc4c(Cc5cnn(C6CCN(C(=O)CS)CC6)c5)ccc2c34)C(=O)N1 (centres unmarked) | CRBN/Zinc finger protein Aiolos | protein level, degrader, western blot | NCI-H929 | 10 nM, 4 h | – | remaining activity | 93.6%
COc1ccc(NC(=O)Nc2ccc3c(c2)C(=O)N(C(C)CO)CC(C)C(CN(C)Cc2ccc4c(c2)OCO4)O3)cc1 (centres unmarked) | Abl2 (Mus musculus, UniProt Q4JIM5) | kinase activity, KinaseProfiler | – | 0.03 µM, species mouse | baseline: control | remaining activity | 97%
N#Cc1cnc2sc(C(=O)O)cc2c1N1CCc2[nH]nc(C(=O)N[C@@H](CC(=O)NCCOCCN3CCOCC3)c3cccc(Br)c3)c2C1 | IL1R1 (Homo sapiens, UniProt P14778) | IL-8 release, antagonist | A-431 | 800 µM, 18 h, together with: IL-1β 5 ng/mL | baseline: untreated | remaining activity | 86.4%
O=C1CCC(N2C(=O)c3cccc4c(Cc5ccc(CN6CCNCC6)cc5)ccc2c34)C(=O)N1 (centres unmarked) | CRBN/Zinc finger protein Aiolos | protein level, degrader, western blot | NCI-H929 | 1 nM, 4 h | – | remaining activity | 79.2%
COC(=O)[C@]1(C(C)C)C=C(C(=O)Nc2cccc(C(=O)Nc3ccc(Nc4nccc(-c5cccnc5)n4)c(C)c3)c2)C(=O)CC1 | MAPK8 (Homo sapiens, UniProt P45983) | kinase activity, inhibitor | – | 0.1829 µM, unit not given, together with: 10 mM glutathione | baseline: no inhibitor | remaining activity | 0.655
O=C1CCC(N2Cc3c(OCc4ccc(CN5CCNCC5)cc4)cccc3C2=O)C(=O)N1 (centres unmarked) | CRBN/Zinc finger protein Aiolos | protein level, degrader, western blot | NCI-H929 | 10 nM, 4 h | – | remaining activity | 78.2%
O=C=[N][Ru-4]123([n]4c5ccc(O)cc5c5c6c(c7cc(F)c[n+]1c7c54)C(=O)NC6=O)[S+]1CC[S+]2CC[S+]3CC1 (centres unmarked) | PDGFRA (Homo sapiens, UniProt P16234, D842V) | enzyme activity | – | 100 nM, human enzyme, together with: 10 µM ATP | baseline: untreated | remaining activity | 63%
O=C1CCC(N2C(=O)c3cccc4c(Cc5cnn(C6CCN(C(=O)CO)CC6)c5)ccc2c34)C(=O)N1 (centres unmarked) | CRBN/Zinc finger protein Aiolos | protein level, degrader, western blot | NCI-H929 | 10 nM, 4 h | – | remaining activity | 19%
O=S(=O)(c1ccc(-c2ccc3ncnc(Nc4ccc(OCc5cccc(Br)c5)c(Cl)c4)c3c2)cc1)N1CCOCC1 | Leishmania major | intracellular amastigote growth, luciferase | RAW264.7 macrophages | – | – | EC50 | 0.47 µM
O=C1c2cccc(O)c2C(=O)c2c(O)cccc21 | PNLIP | enzyme activity, inhibitor, fluorescence | – | 50 µM | – | remaining activity | 6.75%
C[C@](C(=O)NC1CCOCC1)(c1cncnc1)N(C(=O)[C@H](F)Cl)c1ccc(OC(F)(F)Cl)cc1 | Neutrophil elastase (ELANE, Homo sapiens, UniProt P08246) | enzyme activity, inhibitor | – | 10 µM | – | remaining activity | 103%
C[n+]1cc(/C=N/NC(=O)c2cccc(C(=O)N/N=C/c3cc4ccccc4[n+](C)c3)c2)cc2ccccc21 | MYC parallel G4 DNA | FRET melting | – | 1 µM, DNA 0.2 µM, together with: duplex DNA competitor 10 µM | – | ΔTm | 5.2 ± 0.1 °C
CC(C)[C@@H]1NC(=O)[C@H](Cc2ccccc2)NC(=O)CSC[C@@H](C(N)=O)NC(=O)[C@H](CCC(=O)O)NC(=O)[C@H](CO)NC(=O)[C@H](Cc2c[nH]c3cccc(Cl)c23)NC(=O)[C@H](C2CCCCC2)NC(=O)[C@H](C(C)C)NC(=O)[C@H](Cc2ccc(O)cc2)NC(=O)[C@H](CC(=O)O)NC(=O)[C@H](Cc2c[nH]c3ccccc23)NC(=O)[C@H](Cc2ccc(N)nc2)NC(=O)[C@H](Cc2c[nH]c3ccc(Cl)cc23)NC(=O)[C@H](CCC(=O)O)NC1=O | Interleukin-1 receptor-like 2 (IL1RL2, Homo sapiens, UniProt Q9HB29) | reporter gene (SEAP), inhibitor, HEK-Blue IL-36R reporter | HEK-Blue IL-36R cells | 0.005 µM, 6 h, together with: IL-36β 0.03 ng/mL | – | remaining activity | 93.7%
O=C1c2ccccc2C(=O)c2cc(Cl)ccc21 | PNLIP | enzyme activity, inhibitor, fluorescence | – | 50 µM | – | remaining activity | 13.3%
C[n+]1ccc(/C=N/NC(=O)c2cccc(C(=O)N/N=C/c3cc[n+](C)cc3)n2)cc1 | hp2 hairpin duplex DNA | FRET melting | – | 1 µM, together with: ds26 10 µM | – | ΔTm | 0 ± 0.4 °C

A few entries again:
Structure (SMILES) | target or system | test | system | setting | scale | endpoint | result
COc1ccc(NC(=O)Nc2ccc3c(c2)C(=O)N(C(C)CO)CC(C)C(CN(C)Cc2ccc4c(c2)OCO4)O3)cc1 (centres unmarked) | Abl2 (Mus musculus, UniProt Q4JIM5) | kinase activity, KinaseProfiler | – | 0.03 µM, species mouse | baseline: control | remaining activity | 97%
C#CCOC(=O)[C@@]1(C)C=C(C(=O)Nc2cccc(C(=O)Nc3ccc(C)c(Nc4nccc(-c5cccnc5)n4)c3)c2)C(=O)CC1 | MAPK9 | enzyme activity, inhibitor | – | 0.06097 µM, unit not given | baseline: vehicle | remaining activity | 0.761
CC(C)(C)OC(=O)NC(Cc1cccc(Cl)c1)C(=O)NCC=CS(=O)(=O)c1ccccc1 (centres unmarked) | CTSS | inhibitor | – | 5 µM, 60 min, together with: Z-Phe-Arg-AMC | baseline: uninhibited control | remaining activity | < 1%
O=S(=O)(c1ccc(-c2ccc3ncnc(Nc4ccc(OCc5cccc(Br)c5)c(Cl)c4)c3c2)cc1)N1CCOCC1 | Leishmania major | intracellular amastigote growth, luciferase | RAW264.7 macrophages | – | – | EC50 | 0.47 µM
COC(=O)[C@@]1(C)C=C(C(=O)Nc2cccc(C(=O)Nc3ccc(Nc4nccc(-c5cccnc5)n4)c(C)c3)c2)C(=O)CC1 | MAPK9 | enzyme activity, inhibitor | – | 2.788e-05 µM, unit not given | baseline: vehicle | remaining activity | 0.994
